Measured values collected from several papers.
Numbered parts are unrelated; each lists some results of a single study. Positions count from the first letter of the parent shown.

Series 1
Target: CCNF, cyclin fold, Cln2 fusion (human)
Technique: yeast growth competition, sequencing
Sample: yeast
Notes: strong parent motif
Reference: not given
Direction: higher = stronger binding
Quantity: normalised enrichment score
Starting sequence: RB1 docking peptide (human); PKPLKKLRFDIEG
PKPLKKLRFVIEG [D10V]: 2.41
PKPLAKARFDIEG [K5A L7A]: 0.336
PKPEKKLRFDIEG [L4E]: 0.81
PKPLMKLRFDIEG [K5M]: 1.12
PKPLKKLRFDEEG [I11E]: 1.27
PKPLKKLRFEIEG [D10E]: -0.0157
PKPLKKLRFDIYG [E12Y]: 2.34
PKPLKKLRFDNEG [I11N]: 2.1
PKPLKKLRFDMEG [I11M]: 0.826
PKPLKKLRFDIWG [E12W]: 2.03
PKPLKKKRFDIEG [L7K]: 2.06
PKPLKKLRFDIHG [E12H]: 1.26
PKSLKKLRFDIEG [P3S]: 1.49
PKPLKKLRFDLEG [I11L]: 2.71
PKPRKKLRFDIEG [L4R]: 4.2
PKPLKELRFDIEG [K6E]: -0.145
PKPLKILRFDIEG [K6I]: 0.649
PKPLKKLRFDGEG [I11G]: 1.27
PKPGKKLRFDIEG [L4G]: 2.19

Series 2
Target: Sal-like protein 4, full length isoform B (SALL4, Homo sapiens, UniProt Q9UJQ4-2, residues 1-616)
Technique: universal PBM
Molecule type: double-stranded DNA, one strand shown
Sample: in vitro
Concentration: not given
Notes: 8-mer, flanks averaged, mean of replicates
Direction: higher = stronger binding
Quantity: E-score
AAATCGTA: 0.258
AAGGTTAA: 0.116
CCACACTA: 0.123
AATGTTAT: 0.35
CCGATGAG: -0.148
CTCTTAAC: -0.0901
GTGTGCCA: -0.171
ACGCTTCG: -0.131
AGGACTTC: -0.137
AAGTACCC: -0.107
GCACCAGC: -0.291
ACTCCGAT: -0.0738
AAATCTAC: 0.254
AAAGTACG: 0.132
GTTAGTTA: 0.31
AAGTCGCA: 0.0501
CATTGGGA: -0.0604
AGCAAAAA: 0.24
CGTGATTC: 0.0424
ATCAGAAG: 0.153
CTAACAAC: -0.00414
GGTTGACA: -0.0198
CAAAGCGA: -0.00302

Series 3
Target: Ras GTPase-activating protein-binding protein 1, C-terminal RGG region (G3BP1, Homo sapiens, UniProt Q13283)
Sequence of UniProt Q13283 (whole entry, looked up): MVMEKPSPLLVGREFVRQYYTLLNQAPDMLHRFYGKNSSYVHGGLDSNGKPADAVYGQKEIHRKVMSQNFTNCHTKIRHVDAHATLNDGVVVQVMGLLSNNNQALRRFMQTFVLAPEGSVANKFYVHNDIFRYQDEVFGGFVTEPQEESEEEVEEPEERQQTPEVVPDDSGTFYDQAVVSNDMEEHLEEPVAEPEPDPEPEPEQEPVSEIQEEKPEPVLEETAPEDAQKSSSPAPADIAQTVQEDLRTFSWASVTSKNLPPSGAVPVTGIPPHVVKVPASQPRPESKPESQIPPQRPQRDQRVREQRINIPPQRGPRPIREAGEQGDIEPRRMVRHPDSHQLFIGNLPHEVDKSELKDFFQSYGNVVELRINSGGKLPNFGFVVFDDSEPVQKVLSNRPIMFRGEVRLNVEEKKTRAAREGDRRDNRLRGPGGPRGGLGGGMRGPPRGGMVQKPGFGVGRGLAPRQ
Technique: RNA Bind-n-Seq
Molecule type: RNA
Sample: in vitro
Concentration: 1 µM
Notes: whole 134-nt RNA, ends assumed
With: 150 mM KCl
Reference: input library
Direction: higher = stronger binding
Quantity: log2 enrichment
All sequences stand within: GGGAGUUCUACAGUCCGACGAUC … UGGAAUUCUCGGGUGUCAAGG
CACAGACAACACGCACCCACACAGACACAGAGGGAAGGGGUUGGGAUGGGGACAGGGUGCACAGCAGGGCGGGGUAGGACCCCAGCCCCG: -0.853
UCCUCAAGUCCUGUGCUACACAUCGUAUGUACCGAAUCGGAAAGGUGGAGGAAAGUAUUAUGUUACGCCGUUCGGAUCUGCACUUCCAGC: -1.26
GCAGGAAGUAAAAACAAAUGGAAAUGCUUCGGAUAGUGGCAGGGGUGGGGGUUGCUAAGGAAAGGGUGGGAAAGGAGUGGGUAAAGAGUU: 1.89
CCUGUGCUACACAUCGUAUGUACCGAAUCGGGGAAAAAAAGGGGUUUUUGGGGAAAGGGGAAAGUAUUAUGUUACGCCGUUCGGAUCUGC: 0.839
CCUGUGCUACACAUCGUAUGUACCGAAUCGGGUUUUUUUGGGAAAAAAAGGGUUUUUGGGAAAGUAUUAUGUUACGCCGUUCGGAUCUGC: -1.97
UCCUCAAGUCCUGUGCUACACAUCGUAUGUACCGAAUCGGCGGCGGCGGGGAAAGUAUUAUGUUACGCCGUUCGGAUCUGCACUUCCAGC: -0.959
CACAGACAACACGCACCCACACAGACACAGAGGGAAGGGGUUGGGAUGGGGACAGCGUGCACAGCAGGGCGGGGUAGGACCCCAGCCCCU: -0.558
AGUCCUGUGCUACACAUCGUAUGUACCGAAUCGGCCCCCGGCCCCCGGGCCCCCGGGAAAGUAUUAUGUUACGCCGUUCGGAUCUGCACU: -1.74
GUCCUGUGCUACACAUCGUAUGUACCGAAUCGGUUUUUGGAAAAAAAGGAAAAAAAGGAAAGUAUUAUGUUACGCCGUUCGGAUCUGCAC: -1.73
AGUCCUGUGCUACACAUCGUAUGUACCGAAUCGGAAAAAAAGGAAAGGAAAAAAAGGAAAGUAUUAUGUUACGCCGUUCGGAUCUGCACU: -1.86

Series 4
Target: RNA binding protein fox-1 homolog 2, RRM domain, GST-SBP tag (RBFOX2, Homo sapiens, UniProt O43251-10, residues 100-194)
Technique: RNA Bind-n-Seq
Molecule type: RNA
Sample: in vitro
Concentration: 365 nM
Notes: natural RNA segment, single round, ends assumed
Reference: no-protein control
Direction: higher = stronger binding
Quantity: RBNS enrichment (R)
All sequences stand within: GGGAGUUCUACAGUCCGACGAUC … UGGAAUUCUCGGGUGCCAA
Target sequence (chain): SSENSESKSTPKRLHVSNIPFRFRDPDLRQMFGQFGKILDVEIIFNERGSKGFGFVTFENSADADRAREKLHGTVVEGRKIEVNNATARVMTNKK
AUUAACCCAAGUGAACCAACCAAAGUCACCAGUUCAGAAGUGCUAAGCUAAUAGGAGUCUGACCCGAGGGCCUGCUGCUUCCUGGUUAAGUAUCUUUUGAGAUUCUAGAA: 0.329
UUACAUGCAUUGUAAUUCUGCUUUGUCUAUAAGAUAUGGUCAAGUACAGCUCUGUGAAAGUUCUGAUUCUCUUCCUUCCCUGUUUGUCAAUGUUUUAUUCUGAAGUAAAC: 0.69
AAUCCUGAUUUCCAGCUCAUGGAGCCAGCGUUUGAACCUUGAACAAAUAAAUUUCAUUUAUGAUUUUCUCAUCAACAUUUUCUUUGCUCUGUUUGUAGCUGAAUGUUACA: 0.435
AUUUGGCAUUCCAGAAAGGAUUGCUGAUAAUUUAGAUGAUGCAGGGAAGGCCACUGUUAGUAAGGUGCCAGAGCUGCGCCCUUUCCUCCAUCUGCCAUGCCCUAGCCACU: 0.336
ACGAAUCUGCCCACGGUAGUCAGGUCCCCUGAGCUCUGGACUGGAAGUGGAACUGUGUUCCUGCCAGCCUCUGUAAUGACUGAAGAAAUACAGGGUUUUGAAAACAUGAA: 0.969
ACCAUUCGGUGUAAACAUUUGUGUUUAUAAGAUUUACUUUGUUUUUAUUUUUCUACUUGGAACUGUACACAUUUGAAAAGUACCCAAAUAAACCAGAAGCUUUAUCGUUG: 0.312
AAGUUCUUUUUAGCUCAUUCACAAUCACUUGUGUGUUAAGUGUUAAUAUCUGUCAUGAACCUGCCAAUUUGUACGUGUUAAGCAGCUGACAGAUGAUGCAAAAAAAACUA: 2.36
CACAAAUGCAACCCCUCCCCUACAAAUCCCAUCCUGAGCCAUUGCAGGGGUAGGGAAGCUCACCCCUCCCCCCCAAAGCCAUGUCACUGAAGAGGCCUGGGGGGUGGUAU: 0.665
UUACUGUUGUUUAGAAAUUUGCAAGGGCUUCUUUUCCGCAAAUGCCACCAGCAGAUUAUAAUUUUGUCAGCAAUGCUAUUAUCUCUAAUUAGUGCCACCAGACUAGACCU: 0.333
AGGGAGUACCUUUUUUUCUAGUUGAGAAUUAAUAAUGGUCCAUCUCUUUUGAUCAUAUCAAGCUAGGAUAGAAGGGGGGCUAUUUUAAAUGUCAAGGUCAGCAGUGUUAC: 0.859
AAAUUAAAUAAAUUAUAGAAUGUAGUUGGGUGGAUUUUGGGGUGGCCAUAUAGUAAUGGAAAGCUGCAAUAAUUAGUUUUAAUACAGCUUGAAUAUUUGCUAUAUAGAAA: 0.636
AAUCGAUAAUAAAUGAUGGCUUGAUACACUACAGAAAGUGUAUUCUUGUUUAAAAGAUGUCUGAAACCUUUUUAUGGCGUGUUUGUAUUAAAAAUAAAGUAUAGAGGCCA: 0.371

A few entries again (series 2):
GTGTGCCA: -0.171
AAGTCGCA: 0.0501
CAAAGCGA: -0.00302
AAAGTACG: 0.132
ATCAGAAG: 0.153
GGTTGACA: -0.0198
ACTCCGAT: -0.0738
CTCTTAAC: -0.0901
ACGCTTCG: -0.131
CATTGGGA: -0.0604
